{"data": "Measured values from different studies", "note": "A part holds a random share of what one study measured. pIC50: −log10 of the molar value."}
{"data": "Sample 1", "target": "Replicase polyprotein 1ab, main protease (rep, Severe acute respiratory syndrome coronavirus 2, UniProt P0DTD1)", "effect on": "enzyme activity", "mode": "inhibitor", "setting": "with DTT"}
{"SMILES": "Oc1ccc(C2CNCCc3c2cc(O)c(O)c3Cl)cc1 (centres unmarked)", "pIC50": "< 4.70"}
{"SMILES": "Cn1sc(=O)n(Cc2ccccc2)c1=O", "pIC50": 6.85}
{"SMILES": "O=C1OC2(c3cc(I)c(O)c(I)c3Oc3c2cc(I)c(O)c3I)c2c(Cl)c(Cl)c(Cl)c(Cl)c21", "pIC50": 5.10}
{"SMILES": "NC[C@H](O)c1ccc(O)c(O)c1", "pIC50": 7.05}
{"data": "Sample 2", "target": "Interferon regulatory factor 3, full length, phosphomimetic (IRF3, Homo sapiens, UniProt Q14653, residues 1-427, S386D/S396D/S398D/S402D/T404D/S405D)", "technique": "protein-binding microarray", "form": "double-stranded DNA, one strand shown", "matrix": "in vitro", "concentration": "2540 nM top", "setting": "60-bp whole probe", "with": "salmon DNA 0.4 mg/ml", "relative to": "random background probes", "reading": "higher = stronger binding", "shared flanks, not repeated": "GCCTAGCAC … GTCTTGATTCGCTTGACGCTGCTG", "Construct (chain)": "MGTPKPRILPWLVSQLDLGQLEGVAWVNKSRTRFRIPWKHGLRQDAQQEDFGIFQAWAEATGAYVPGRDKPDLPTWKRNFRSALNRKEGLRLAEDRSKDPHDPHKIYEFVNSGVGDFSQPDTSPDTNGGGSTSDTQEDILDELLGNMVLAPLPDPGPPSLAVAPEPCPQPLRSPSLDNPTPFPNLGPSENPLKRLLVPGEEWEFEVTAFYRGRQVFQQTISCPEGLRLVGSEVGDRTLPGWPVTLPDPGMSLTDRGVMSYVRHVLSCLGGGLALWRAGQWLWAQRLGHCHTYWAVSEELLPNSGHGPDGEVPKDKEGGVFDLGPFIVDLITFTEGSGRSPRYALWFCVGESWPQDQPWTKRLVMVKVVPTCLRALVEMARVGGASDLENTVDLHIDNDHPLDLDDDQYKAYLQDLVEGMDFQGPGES"}
{"Strand": "TCAATACTCTTCCATGGAACTGTGCTA", "fitted relative affinity": "-0.0683 z-score"}
{"Strand": "TAGGTTTTCTGGTTCCCATTGTGCTAG", "fitted relative affinity": "1.26 z-score"}
{"Strand": "TCAAATTCTCTTTTCACACTGTGCTAG", "fitted relative affinity": "1.9 z-score"}
{"Strand": "TTAGGTTTCGGACGGGGTTAGTGCTAG", "fitted relative affinity": "2.09 z-score"}
{"Strand": "TCAAGTTTTCCTATGTCACTGTGCTAG", "fitted relative affinity": "1.61 z-score"}
{"Strand": "TTAGGTATCGACTATCGGTGAGTGCTA", "fitted relative affinity": "0.233 z-score"}
{"Strand": "TTAAGACTGGACACTGGGTTAGTGCTA", "fitted relative affinity": "-0.774 z-score"}
{"Strand": "GACGAACTGTGGACTGGAGACGTGCTA", "fitted relative affinity": "-0.544 z-score"}
{"data": "Sample 3", "target": "RING finger protein unkempt homolog, zinc fingers 1-6, SBP tag (UNK, Homo sapiens, UniProt Q9C0B0, residues 30-357)", "technique": "RNA Bind-n-Seq", "form": "RNA", "matrix": "in vitro", "concentration": "100 nM", "setting": "RNA with constant flanks, vertebrate orthologous sites, ends assumed", "relative to": "input RNA pool", "reading": "higher = stronger binding", "chain of UniProt Q9C0B0 (30-357, looked up)": "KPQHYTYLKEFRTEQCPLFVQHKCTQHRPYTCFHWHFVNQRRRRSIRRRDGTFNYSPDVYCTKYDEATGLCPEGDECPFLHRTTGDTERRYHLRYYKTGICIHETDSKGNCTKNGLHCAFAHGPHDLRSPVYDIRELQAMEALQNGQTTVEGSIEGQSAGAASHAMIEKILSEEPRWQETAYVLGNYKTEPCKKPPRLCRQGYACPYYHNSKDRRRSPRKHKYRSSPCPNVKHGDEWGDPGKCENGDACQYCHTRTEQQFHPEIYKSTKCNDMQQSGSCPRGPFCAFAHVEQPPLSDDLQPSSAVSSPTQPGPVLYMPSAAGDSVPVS"}
{"Strand": "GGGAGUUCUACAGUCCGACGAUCAUGGCACGCCCUGUGAGAGGGAGUGGGGGAAGCCCAGGAUGACCCUCAGUUGUUCCAAUCCAGUAUUUUUUCCUUUAAAAAAAAAUUACUGUAUUUAUUAUGACGAUGGUGACUCCCCAGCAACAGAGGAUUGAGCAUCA", "bound/input enrichment": "0.259 ratio"}
{"Strand": "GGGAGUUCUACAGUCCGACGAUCAUCCCUCAGUGACAGUAUGCCAUCUGUAGCAGAUUCCCACUCCAGUCAUUUUUCUGAAUUUAGUUGUUCUGACCUAGAAAGCAUGAAAACUUCUUGUAGUCAUGGUUCCAAUGAUUAUCACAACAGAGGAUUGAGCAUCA", "bound/input enrichment": "0.773 ratio"}
{"Strand": "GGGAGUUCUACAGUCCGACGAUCAGACACCUCCCCUUAUGACAGGGAUUGUGGGGGGGGCAGGAUGACUCAGCUGUUCCAAUCCAGUAUUUUAUUUUUCUUCUUUGAAAUAAAAACGGACUGUAUUUAUUAUGACGAUGGUGCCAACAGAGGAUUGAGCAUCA", "bound/input enrichment": "0.707 ratio"}
{"Strand": "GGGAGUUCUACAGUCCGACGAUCUUCAGGCACAGUUAACCAGCUCUCAGCAUUCCUUACAAAGUUACCUAACCAGUACAAGUGGAGUUAGUUUUCAGGAUACAUCAAGGCAGUCAUCAUUGCCUUGCAGUCCUAUUGGAGAUGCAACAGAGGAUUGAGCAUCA", "bound/input enrichment": "0.423 ratio"}
{"Strand": "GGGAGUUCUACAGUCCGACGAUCACAUGCGUGCGCUUCUCUACAGUUUAAGAUGCUUCCUUUGGUUCCUCACAUAUCUCAUCCUAUUGACUUACCUAUUUUUUAAAAAUAGCAGUAUAAACUCAAAGUGGACUUAACACAGUGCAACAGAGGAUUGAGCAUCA", "bound/input enrichment": "1.23 ratio"}
{"Strand": "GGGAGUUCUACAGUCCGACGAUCCUCUCUGAGCGAUAGUAUUCCAUCUGUAGCAGAUUCACACUCCAGCCAUUUCUCUGAGUUCAGUUGCUCAGAUAUGGAAAGUAUGAAAACUUCCUGUAGCCAUGGUUCCAGCGACUACCACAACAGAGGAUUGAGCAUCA", "bound/input enrichment": "0.403 ratio"}
{"Strand": "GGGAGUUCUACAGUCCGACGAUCUCAUCUCUUUUUAUAUGUCAAAAAAUGGCUUUGAAUUUUUAAACAAUUGCUAGUUUUAAUUAGCUCUGCUGUCAUGAAGUAUUGUUAUAGUUCGCCACAAAUAUAUCUCUGAAUUACUUCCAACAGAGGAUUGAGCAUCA", "bound/input enrichment": "0.551 ratio"}
{"Strand": "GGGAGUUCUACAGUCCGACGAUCAAAUUUAUUUUAUGCCCUGGACUCCCUACCGCACCGAUACGUUAAUAGAAUAUGCCUCUUUAGAAGAUUUUCAAAACAGCCGCCAGACAACAACAUACAAACUUCCAAACCGAGUAGACGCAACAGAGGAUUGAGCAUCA", "bound/input enrichment": "2.96 ratio"}
{"data": "Sample 4", "target": "Sal-like protein 4, full length isoform A (SALL4, Homo sapiens, UniProt Q9UJQ4, residues 1-1053)", "technique": "universal PBM", "form": "double-stranded DNA, one strand shown", "matrix": "in vitro", "concentration": "600 nM", "setting": "8-mer, flanks averaged, mean of replicates", "reading": "higher = stronger binding", "chain of UniProt Q9UJQ4 (whole entry, looked up)": "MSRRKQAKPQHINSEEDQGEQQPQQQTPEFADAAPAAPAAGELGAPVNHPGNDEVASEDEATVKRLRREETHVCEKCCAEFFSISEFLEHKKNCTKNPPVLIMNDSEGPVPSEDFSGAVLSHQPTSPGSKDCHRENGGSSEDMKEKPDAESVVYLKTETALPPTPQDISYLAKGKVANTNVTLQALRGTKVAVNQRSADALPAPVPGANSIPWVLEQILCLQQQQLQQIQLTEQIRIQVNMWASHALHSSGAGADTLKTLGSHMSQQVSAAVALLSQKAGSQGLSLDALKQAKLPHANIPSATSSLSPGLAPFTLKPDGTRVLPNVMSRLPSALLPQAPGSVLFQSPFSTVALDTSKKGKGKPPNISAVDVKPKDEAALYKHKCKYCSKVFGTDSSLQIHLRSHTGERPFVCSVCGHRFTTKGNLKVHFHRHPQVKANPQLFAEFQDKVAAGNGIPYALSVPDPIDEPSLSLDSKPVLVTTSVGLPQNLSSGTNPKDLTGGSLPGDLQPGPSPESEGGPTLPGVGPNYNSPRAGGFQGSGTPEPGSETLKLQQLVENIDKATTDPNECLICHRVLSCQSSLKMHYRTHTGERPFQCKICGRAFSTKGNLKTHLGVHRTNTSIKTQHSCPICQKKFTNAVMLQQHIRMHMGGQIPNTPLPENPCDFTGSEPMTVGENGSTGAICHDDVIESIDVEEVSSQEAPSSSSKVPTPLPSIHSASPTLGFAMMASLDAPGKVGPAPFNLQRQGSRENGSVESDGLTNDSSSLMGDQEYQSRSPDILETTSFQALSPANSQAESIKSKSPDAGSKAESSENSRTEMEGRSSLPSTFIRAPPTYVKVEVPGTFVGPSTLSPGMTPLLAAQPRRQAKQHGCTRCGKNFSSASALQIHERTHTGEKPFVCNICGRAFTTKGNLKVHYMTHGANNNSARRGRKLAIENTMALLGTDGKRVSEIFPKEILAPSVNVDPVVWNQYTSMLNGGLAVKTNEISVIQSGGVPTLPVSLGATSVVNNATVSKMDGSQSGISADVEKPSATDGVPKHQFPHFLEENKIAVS"}
{"Strand": "AAGGAGCC", "E-score": -0.236}
{"Strand": "GGTCAAGA", "E-score": -0.044}
{"Strand": "TCAGTGCA", "E-score": -0.0159}
{"Strand": "ATAATACA", "E-score": 0.41}
{"Strand": "ATTTCGTC", "E-score": 0.226}
{"Strand": "AACCCGGC", "E-score": -0.312}
{"Strand": "CAGATCGA", "E-score": -0.0405}
{"Strand": "GGCACTAC", "E-score": -0.243}
{"data": "Sample 5", "cell line": "HEK-293T-ACE2", "concentration": "concentration not given", "relative to": "vehicle"}
{"Compound": "CC(C)OC(=O)[C@H](C)N[P@](=O)(OC[C@H]1O[C@@H](n2ccc(=O)[nH]c2=O)[C@](C)(F)[C@@H]1O)Oc1ccccc1", "cell number [%]": 98.3}
{"Compound": "COc1cc2nccc(Oc3ccc(NC(=O)C4(C(=O)Nc5ccc(F)cc5)CC4)cc3)c2cc1OC.O=C(O)C[C@H](O)C(=O)O", "cell number [%]": 76.8}
{"Compound": "CN(C)CCC(c1ccc(Br)cc1)c1ccccn1.O=C(O)/C=C\\C(=O)O (centres unmarked)", "cell number [%]": 108}
{"data": "Sample 6", "target": "Replicase polyprotein 1ab, polymerase (rep, Severe acute respiratory syndrome coronavirus 2, UniProt P0DTD1)", "effect on": "enzyme activity", "mode": "inhibitor", "concentration": "20 µM"}
{"Compound": "O=c1c2c(c1=O)N(CCP(=O)(O)O)CCCN2", "inhibition [%]": 3.8}
{"Compound": "O=C(O)c1ccc2[nH]cc(CCCCN3CC=C(c4ccccc4)CC3)c2c1", "inhibition [%]": -2.27}
{"Compound": "CC1(C)Oc2ccc(C#N)cc2[C@H](N(Cc2ncc[nH]2)c2ccc(Cl)cc2)[C@H]1O", "inhibition [%]": -1}
{"Compound": "C[C@H](CCC(=O)O)[C@H]1CC[C@H]2[C@@H]3C[C@H](O)[C@@H]4C[C@H](O)CC[C@]4(C)[C@H]3CC[C@]12C", "inhibition [%]": -5.29}
{"Compound": "C1CCc2nnnn2CC1", "inhibition [%]": 1.37}
{"Compound": "CC(=O)NCCC(=O)N[C@@H](Cc1cnc[nH]1)C(=O)O", "inhibition [%]": -1.36}
{"Compound": "Cc1cc(C)n(-c2cccc([C@H](CC(=O)O)CN3CC[C@@H](CCc4ccc5c(n4)NCCC5)C3)c2)n1", "inhibition [%]": 2.25}
{"Compound": "Cc1cc(O)cc2c1O[C@](C)(CCC[C@H](C)CCC[C@H](C)CCCC(C)C)CC2", "inhibition [%]": 1.06}
{"Compound": "N#C/C(=C(/N)Sc1ccc(N)cc1)c1ccccc1C(F)(F)F", "inhibition [%]": -1.2}
{"Compound": "Fc1ccc(C(c2ccccc2)(c2ccccc2F)n2ccnc2)cc1 (centres unmarked)", "inhibition [%]": -7.12}
{"Compound": "Cc1c(N)cccc1Cn1ccc(OCCc2cccs2)cc1=O", "inhibition [%]": 8.14}
{"Compound": "Cc1ncc(CNC(=O)N(CCCl)N=O)c(N)n1", "inhibition [%]": -2.88}
{"Compound": "CN[C@@H]1[C@@H](O[C@H]2O[C@H](CO)[C@@H](N)[C@H](O)[C@H]2O)O[C@H]2C[C@@H](N)[C@@H](O[C@H]3[C@H](O)[C@@H](O)[C@H](N)C[C@@H]3N)O[C@@H]2[C@@H]1O", "inhibition [%]": -14.6}
{"Compound": "C[C@H]1O[C@@H](n2cc(F)c(=O)[nH]c2=O)[C@H](O)[C@@H]1O", "inhibition [%]": 17.3}
{"Compound": "O=C(Cn1c(=O)sc2ccc(Cl)cc21)N1CCN(CCO)CC1", "inhibition [%]": -9.35}
{"Compound": "CN1C(=O)/C(=C2/C(=O)Nc3ccccc32)c2ccccc21", "inhibition [%]": 1.19}
{"Compound": "CC(C)(C)c1ccc(-c2nc3c(N4CCN(Cc5ccc6nccnc6c5)CC4)cccc3[nH]2)cc1", "inhibition [%]": -2.97}
{"Compound": "CCCN1CCC[C@@H]2Cc3nc(N)ncc3C[C@H]21", "inhibition [%]": -2.25}
{"Compound": "C=CCN1C[C@H](C)N([C@H](c2ccc(C(=O)N(CC)CC)cc2)c2cccc(OC)c2)C[C@H]1C", "inhibition [%]": 2.13}
{"Compound": "CCC(N)C(O)c1ccc(O)c(O)c1 (centres unmarked)", "inhibition [%]": -0.83}
{"Compound": "CC(C)(Sc1ccncc1-c1ccc(C#N)c2ccccc12)C(=O)O", "inhibition [%]": -2.17}
{"Compound": "Cc1cnc(NC(=O)c2cc(Oc3cnc(C(=O)N(C)C)nc3)c3cc(C)oc3c2)cn1", "inhibition [%]": -0.94}
{"Compound": "CN[C@H](CC(C)C)C(=O)N[C@H]1C(=O)N[C@@H](CC(N)=O)C(=O)N[C@H]2C(=O)N[C@H]3C(=O)N[C@H](C(=O)N[C@H](C(=O)O)c4cc(O)cc(O)c4-c4cc3ccc4O)[C@H](O)c3ccc(c(Cl)c3)Oc3cc2cc(c3O[C@@H]2O[C@H](CO)[C@@H](O)[C@H](O)[C@H]2O[C@H]2C[C@](C)(N)[C@H](O)[C@H](C)O2)Oc2ccc(cc2Cl)[C@H]1O", "inhibition [%]": -3.9}
{"Compound": "CC(C)[C@](O)(c1ccc2cc(OC(F)F)c(OC(F)F)cc2c1)c1c[nH]nn1", "inhibition [%]": 2.18}
{"Compound": "CCn1cc(C(=O)O)c(=O)c2cc3c(cc21)OCO3", "inhibition [%]": 6.47}
